# Measurements from different studies.
# Protocols differ between the studies behind these lines. “And” joins repeats or separate records; there may be more than shown.
# Target: Serine/threonine-protein kinase tousled-like 2 (TLK2, Homo sapiens, UniProt Q86UE8)
SMILES,test,test system,setting,scale,quantity,value
C=CC(=O)N1Cc2nc(-c3cc(-c4cc(Cl)cnc4Cl)c(F)cc3F)n(-c3ccncn3)c2C1,"cell-free assay, inhibitor",,1 µM,,inhibition,8%
COc1c(Cl)cccc1Nc1c(-c2ccncc2C#C[C@@]2(C)CCCN2C(=O)/C=C/CN(C)C)[nH]c2c1C(=O)NCC2,"cell-free assay, competition with immobilised ligand",,3 µM,,remaining binding,93%
COc1c(OCCCN2CCOCC2)ccc2c1N=C(NC(=O)c1cnc(N)nc1)N1CCN=C21,"kinase activity, inhibitor",,1 µM,baseline: untreated control,remaining activity,103%
CCN1CCN(Cc2ccc(C(=O)Nc3ccc(C)c(NCc4cnc5[nH]ccc5c4OC)c3)cc2C(F)(F)F)CC1,"binding, competition with immobilised ligand",,1 µM,,remaining binding,100%
O=C(Cc1ccc(OCc2ccccc2)cc1)NC1(C(=O)O)CCN(C(=O)c2ccc(-c3cccc(Cl)c3)cc2)CC1,"enzyme activity, inhibitor",,10 µM,,activity vs control,110%
O=C=[N][Ru-4]123([n]4c5ccc(O)cc5c5c6c(c7cc(F)c[n+]1c7c54)C(=O)NC6=O)[S+]1CC[S+]2CC[S+]3CC1 (stereo not drawn),enzyme activity,,"100 nM, human enzyme, together with: 10 µM ATP",baseline: untreated,remaining activity,108%
COc1cc(Nc2nccc(-c3cnn4nc(OC)ccc34)n2)cc(C(F)(F)F)c1,"binding, competition with immobilised ligand",,1 µM,,remaining binding,100%
C=CC(=O)N1CCCC(n2c(=O)c3ncccc3n(Cc3ccc(Oc4ccccc4)cc3)c2=O)C1 (stereo not drawn),"cell-free assay, competition with immobilised ligand",,1 µM,,remaining binding,100%
CCn1cc(C(=O)O)c(=O)c2c(N)c(F)c(NC3CCCCC3)cc21,kinase activity,,"0.1 µM, together with: ATP at Km",,inhibition,-11.8%
N[C@H]1CC[C@H](Nc2nccc(-c3cccnc3Oc3ccc(NC(=O)NC4CC4)c4ccccc34)n2)CC1,kinobead competition pulldown,HEK293/HCT116 lysate mixture,"10 µM, 1 h, 4 °C",lower = stronger competition,log2 LFQ intensity,22.7 and 22.8 and 22.9 and 22.6
Nc1ncc(-c2cc(-c3cnn(CC(F)(F)F)c3)ncc2F)nc1C(=O)NC1CNCC(F)C1 (stereo not drawn),enzyme activity,,1 µM,baseline: DMSO control,remaining activity,83.6%
C=CC(=O)N1CCc2ccc(-n3c(=O)ccc4cnc5ccc(-c6cnn(C)c6)cc5c43)cc21,KINOMEscan,,1 µM,baseline: DMSO control,remaining binding,100%
COc1ccc(NC(=O)Nc2ccc3c(c2)C(=O)N(C(C)CO)CC(C)C(CN(C)Cc2ccc4c(c2)OCO4)O3)cc1 (stereo not drawn),"kinase activity, KinaseProfiler",,"0.03 µM, species human",baseline: control,remaining activity,121%
Cc1ccc(C(=O)Nc2ccc(CN3CCN(C)CC3)c(C(F)(F)F)c2)cc1C#Cc1cnc2cccnn12,"target engagement, NanoBRET",human cells,,,upper asymptote,193
NC(=O)C[C@H]1CCc2sc3ncnc(O[C@H]4CC[C@H](N5CCOCC5)CC4)c3c21,"enzyme activity, inhibitor",,10 µM,,inhibition,-3%
